# Assay results from different studies.
# Compare with care: the assays were run in different laboratories. Numbers after ± are the reported error.
Compound,test,system,conditions,Cmax
CN[C@@H](CCOc1cccc2ccccc12)c1ccccc1,,"healthy male humans, plasma","oral, 60 mg of dapoxetine",14.2 ± 7.05 ng/mL
C=CC(=O)Nc1cc(Nc2nccc(-c3cn(C4CC4)c4ccccc34)n2)c(OC)cc1N(C)CCNC,,"healthy Chinese male human, plasma","oral, 110 mg almonertinib, metabolite, [14C] single dose",22.2 ± 3.94 ng/mL
O=C(CCc1ccc(CNC(C(=O)OC2CCCC2)C2CCCCC2)cn1)NO (stereo not drawn),,"human, plasma","oral, 40 mg once daily, day 7, geometric mean",284 ng/mL
CC[C@H](C)[C@H](NC(=O)[C@H](CC(C)C)NC(=O)[C@H](Cc1c[nH]c2ccccc12)NC(=O)[C@H](C)NC(=O)[C@@H](NC(=O)[C@H](Cc1ccccc1)NC(=O)[C@H](CC(=O)O)NC(=O)[C@H](CCCNC(=N)N)NC(=O)[C@H](C)NC(=O)[C@H](C)NC(=O)[C@H](CC(C)C)NC(=O)[C@H](C)NC(=O)[C@H](CC(=O)O)NC(=O)[C@H](CC(C)C)NC(=O)[C@@H](NC(=O)[C@@H](NC(=O)[C@H](C)NC(=O)[C@H](CC(C)C)NC(=O)[C@H](CCC(=O)O)NC(=O)[C@H](CO)NC(=O)[C@H](CO)NC(=O)[C@H](Cc1ccccc1)NC(=O)[C@@H](NC(=O)CNC(=O)[C@H](CCC(=O)O)NC(=O)CNC(=O)[C@@H](N)Cc1c[nH]cn1)[C@@H](C)O)[C@@H](C)O)[C@@H](C)CC)[C@@H](C)CC)C(=O)N[C@@H](C)C(=O)N[C@H](C(=O)N[C@@H](CCCCN)C(=O)N[C@H](C(=O)N[C@H](C(=O)N[C@@H](CC(=O)O)C(=O)N[C@@H](CCCCN)C(=O)O)[C@@H](C)O)[C@@H](C)CC)[C@@H](C)O,immunoaffinity LC-MS/MS,"healthy human subjects, plasma","subcutaneous, 5 mg once weekly, day 36 after 6 doses, steady state, geometric mean",2.51 nM
O=C(CCc1ccc(CNC(C(=O)O)C2CCCCC2)cn1)NO (stereo not drawn),,"human, plasma","oral, 20 mg once daily, day 7, geometric mean",69.5 ng/mL
Cn1c(=O)oc2ccc(-c3ccc(CC(C#N)NC(=O)C4CNCCCO4)c(F)c3)cc21 (stereo not drawn),,"human, fed, plasma","40 mg single dose, geometric mean",162 ng/mL
CC[C@H](C)[C@H](NC(=O)[C@H](CC(C)C)NC(=O)[C@H](Cc1c[nH]c2ccccc12)NC(=O)[C@H](C)NC(=O)[C@@H](NC(=O)[C@H](Cc1ccccc1)NC(=O)[C@H](CC(=O)O)NC(=O)[C@H](CCCNC(=N)N)NC(=O)[C@H](C)NC(=O)[C@H](C)NC(=O)[C@H](CC(C)C)NC(=O)[C@H](C)NC(=O)[C@H](CC(=O)O)NC(=O)[C@H](CC(C)C)NC(=O)[C@@H](NC(=O)[C@@H](NC(=O)[C@H](C)NC(=O)[C@H](CC(C)C)NC(=O)[C@H](CCC(=O)O)NC(=O)[C@H](CO)NC(=O)[C@H](CO)NC(=O)[C@H](Cc1ccccc1)NC(=O)[C@@H](NC(=O)CNC(=O)[C@H](CCC(=O)O)NC(=O)CNC(=O)[C@@H](N)Cc1cnc[nH]1)[C@@H](C)O)[C@@H](C)O)[C@@H](C)CC)[C@@H](C)CC)C(=O)N[C@@H](C)C(=O)N[C@H](C(=O)N[C@@H](CCCCN)C(=O)N[C@H](C(=O)N[C@H](C(=O)N[C@@H](CC(=O)O)C(=O)N[C@@H](CCCCN)C(=O)N[C@@H](CCCCN)C(=O)N[C@@H](CCCCN)C(=O)N[C@@H](CCCCN)C(=O)N[C@@H](CCCCN)C(=O)N[C@@H](CCCCN)C(N)=O)[C@@H](C)O)[C@@H](C)CC)[C@@H](C)O,,"healthy humans, plasma","subcutaneous, 5 mg once weekly, 6 doses, day 36, geometric mean",2.83 nM
[2H]C([2H])([2H])NC(=O)c1ccc(N2C(=S)N(c3ccc(C#N)c(C(F)(F)F)c3)C(=O)C2(C)C)cc1F,,"healthy male human, plasma","oral, 160 mg, high-fat meal, single dose",4830 ± 1160 ng/mL
CC12CC(c3ccc(S(C)(=O)=O)cc3)C3=C4CCC(=O)C=C4CCC3C1CCC2(O)C(F)(F)C(F)(F)F (stereo not drawn),,"human, plasma","oral, 4 mg, dosed on day 4, geometric mean, added: itraconazole 200 mg/day",29.5 ng/mL
CCc1c2c(nc3ccc(O)cc13)-c1cc3c(c(=O)n1C2)COC(=O)[C@]3(O)CC,,"human patients, plasma","intravenous, 12 mg/m2 of parent drug",30 ng/mL
CCc1cc(Nc2nc(-c3ccc(-n4cnc(C)c4)c(F)c3)cs2)c(C)cc1C,,"human, both sexes, plasma","oral, 400 mg once daily, day 14, multiple dose, geometric mean",1480 ng/mL
CC1C(c2c(F)ccc(F)c2F)CC(N[14C](=O)c2cnc3c(c2)CC2(C3)C(=O)Nc3ncccc32)C(=O)N1CC(F)(F)F (stereo not drawn),"liquid scintillation counting, refers to: total radioactivity","human, plasma","oral, 50 mg, single dose, 14C-labelled",349 ± 82.6 ng-eq/mL
CC(=O)N[C@H](CC(=O)O)C(=O)N[C@H](Cc1c[nH]c2ccccc12)C(=O)N[C@H](Cc1ccccc1)C(=O)N[C@H](CCCCN)C(=O)N[C@H](C)C(=O)N[C@H](Cc1ccccc1)C(=O)N[C@H](Cc1ccc(O)cc1)C(=O)N[C@H](CC(=O)O)C(=O)N[C@H](CCCCN)C(=O)N[C@@H](C(=O)N[C@H](C)C(=O)N[C@H](CCC(=O)O)C(=O)N[C@H](CCCCN)C(=O)N[C@H](Cc1ccccc1)C(=O)N[C@H](CCCCN)C(=O)N[C@H](CCC(=O)O)C(=O)N[C@H](C)C(=O)N[C@H](Cc1ccccc1)C(N)=O)C(C)C,,"human, statin-treated high-risk CHD, both sexes, plasma","oral, 300 mg daily, day 13, 0 to 8 h, mean, undetectable set to 0",7.55 ng/mL
Cc1nc(C)c(C=[N+]([O-])C(C)(C)C)nc1C,,"healthy human, both sexes, serum","oral, 1200 mg twice daily, 7 days",25300 ng/mL
[2H]C([2H])([2H])Oc1cc2c(cc1OC([2H])([2H])[2H])[C@H]1CC(=O)[C@H](CC(C)C)CN1CC2,,"human CYP2D6 extensive metabolizers, plasma","oral, 25 mg, fasted, arithmetic mean",0.3 ng/mL

# Excerpt of the above:
Compound,test,system,conditions,Cmax
CC1C(c2c(F)ccc(F)c2F)CC(N[14C](=O)c2cnc3c(c2)CC2(C3)C(=O)Nc3ncccc32)C(=O)N1CC(F)(F)F (stereo not drawn),"liquid scintillation counting, refers to: total radioactivity","human, plasma","oral, 50 mg, single dose, 14C-labelled",349 ± 82.6 ng-eq/mL
[2H]C([2H])([2H])Oc1cc2c(cc1OC([2H])([2H])[2H])[C@H]1CC(=O)[C@H](CC(C)C)CN1CC2,,"human CYP2D6 extensive metabolizers, plasma","oral, 25 mg, fasted, arithmetic mean",0.3 ng/mL
